Published values pooled from the literature.
Parts stem from different laboratories: compare values within a part only.

Study 1 — technique: protein-binding microarray; molecule type: double-stranded DNA, one strand shown; matrix: in vitro; concentration: 2540 nM top; notes: 60-bp whole probe; with: salmon DNA 0.4 mg/ml; relative to: random background probes; reading: higher = stronger binding; quantity: fitted relative affinity; shared flanks, not repeated: GCCTAGCAC … GTCTTGATTCGCTTGACGCTGCTG
Target: Interferon regulatory factor 3, full length, phosphomimetic (IRF3, Homo sapiens, UniProt Q14653, residues 1-427, S386D/S396D/S398D/S402D/T404D/S405D)
Target sequence (chain): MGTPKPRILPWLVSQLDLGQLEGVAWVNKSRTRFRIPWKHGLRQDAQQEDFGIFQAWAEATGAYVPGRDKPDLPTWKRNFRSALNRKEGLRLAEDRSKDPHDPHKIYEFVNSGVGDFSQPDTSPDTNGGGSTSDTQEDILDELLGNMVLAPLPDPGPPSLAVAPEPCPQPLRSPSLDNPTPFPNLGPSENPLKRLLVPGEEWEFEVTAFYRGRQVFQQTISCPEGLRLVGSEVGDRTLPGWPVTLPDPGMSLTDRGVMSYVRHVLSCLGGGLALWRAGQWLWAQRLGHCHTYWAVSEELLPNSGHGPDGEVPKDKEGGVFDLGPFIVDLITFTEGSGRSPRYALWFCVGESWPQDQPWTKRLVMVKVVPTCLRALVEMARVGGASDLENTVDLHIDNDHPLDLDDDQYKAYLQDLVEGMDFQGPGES
TCATTTATCAATCATTTTACTGTGCTA: 1.63 z-score
TTAGGTTTCGGTCTCGTTTAGTGCTAG: 8.95 z-score
TACGATCTCAGTATCGAGACGTGCTAG: 0.948 z-score
TCAGGTATGCTCATGACACTGTGCTAG: -0.463 z-score
AGGGGACTGACTCTTCAGCACGTGCTA: -0.853 z-score

Study 2 — technique: protein-binding microarray; molecule type: double-stranded DNA, one strand shown; matrix: in vitro; concentration: not given; reading: higher = stronger binding; quantity: E-score
Target: Transcription factor Sp1 (SP1, Homo sapiens, UniProt P08047, residues 1-785, full length assumed)
Sequence of UniProt P08047 (whole entry, looked up): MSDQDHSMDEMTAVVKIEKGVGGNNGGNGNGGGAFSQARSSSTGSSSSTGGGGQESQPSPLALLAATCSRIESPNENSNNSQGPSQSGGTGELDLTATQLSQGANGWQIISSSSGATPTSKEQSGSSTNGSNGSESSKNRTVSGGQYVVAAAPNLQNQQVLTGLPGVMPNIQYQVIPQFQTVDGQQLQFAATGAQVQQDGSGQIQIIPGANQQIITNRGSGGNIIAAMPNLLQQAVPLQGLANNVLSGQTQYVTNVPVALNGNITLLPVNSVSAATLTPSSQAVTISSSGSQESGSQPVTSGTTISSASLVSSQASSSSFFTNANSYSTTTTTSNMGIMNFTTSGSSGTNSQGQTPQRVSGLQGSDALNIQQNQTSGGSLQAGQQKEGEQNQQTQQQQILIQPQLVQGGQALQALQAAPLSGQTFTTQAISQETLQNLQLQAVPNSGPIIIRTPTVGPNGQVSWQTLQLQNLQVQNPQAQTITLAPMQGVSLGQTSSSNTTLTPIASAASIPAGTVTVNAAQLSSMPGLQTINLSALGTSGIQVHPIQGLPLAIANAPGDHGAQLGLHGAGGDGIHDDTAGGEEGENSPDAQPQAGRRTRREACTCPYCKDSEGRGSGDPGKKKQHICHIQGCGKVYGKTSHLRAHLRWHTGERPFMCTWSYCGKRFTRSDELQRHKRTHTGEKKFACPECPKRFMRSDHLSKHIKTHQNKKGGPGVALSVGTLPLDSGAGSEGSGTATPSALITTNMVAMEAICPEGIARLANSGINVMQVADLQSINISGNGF
Notes: k-mer, scored over probes, only values ≥0.25
CCCCCCTC: 0.317
CCCGCCCG: 0.393
ACCCATAC: 0.27
ATATTCCA: 0.272
CCCTCCTA: 0.344

Study 3 — technique: RNAcompete; molecule type: RNA; matrix: in vitro; concentration: 20 nM; notes: 7-mer, probes averaged, single round; relative to: mean of 7-mers; reading: higher = stronger binding; quantity: 7-mer Z-score
Target: PABPC1L2, full length, GST fusion (mouse, UniProt A0ABA7IW68)
Target sequence (chain): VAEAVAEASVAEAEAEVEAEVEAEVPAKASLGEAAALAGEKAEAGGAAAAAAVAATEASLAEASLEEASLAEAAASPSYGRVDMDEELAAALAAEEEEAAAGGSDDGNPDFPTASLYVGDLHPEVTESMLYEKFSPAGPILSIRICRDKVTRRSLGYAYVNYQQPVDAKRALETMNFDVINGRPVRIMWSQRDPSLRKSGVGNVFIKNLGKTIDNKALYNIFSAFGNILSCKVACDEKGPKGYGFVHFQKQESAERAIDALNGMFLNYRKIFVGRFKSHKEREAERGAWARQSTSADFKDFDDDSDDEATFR
CCCACAG: -0.402
GGGCCGG: 0.0315
CCCCCAA: -0.354
AUAUAAC: -0.012

Other studies, line by line
PhoQ, residues 284 288 289 292 302 303 SLANKL  fold induction (PhoP, residues 12 14 15 18 19 FWNTL (Escherichia coli, UniProt P23836); Sort-seq, item: YFP reporter; E. coli; PhoQ-PhoP variant library, with: 10 µM Mg2+; relative to: high Mg2+ state, higher = stronger signaling): 13.3

Repeated from above (study 2):
CCCCCCTC: 0.317
